Results collected from several papers.
Each line is one published result; not all experiments were run side by side.
ABL1 phosphorylated: Tyrosine-protein kinase ABL1, phosphorylated (ABL1, Homo sapiens, UniProt P00519)
ABL1 H396P non-phosphorylated: Tyrosine-protein kinase ABL1, non-phosphorylated (ABL1, Homo sapiens, UniProt P00519, H396P)

Structure (SMILES)	target	assay	setting	scale	measurement	result
Nc1ncc2c(n1)-c1c([nH]c3ccc(C4=CCOCC4)cc13)CCC2	Tyrosine-protein kinase ABL1, non-phosphorylated (ABL1, Homo sapiens, UniProt P00519)	binding, competition with immobilised ligand	1 µM	–	remaining binding	100%
Cc1ccc(-c2c(/C=C(\C#N)C(=O)NC(C)C)n(CCCO)c3ncnc(N)c23)cc1	ABL1 phosphorylated	cell-free assay, competition with immobilised ligand	1 µM	–	remaining binding	94%
CNC(=O)C1CCN(c2cc(C)c(F)cc2NC(=O)c2ccc(-c3cc(O)ccc3C)c(C)c2)CC1	ABL1 H396P non-phosphorylated	binding, competition with immobilised ligand	1 µM	–	remaining binding	20%
Cc1cnc2nc1Nc1cccc(c1)COC/C=C/COCc1cc(ccc1OCCN1CCOCC1)N2	Tyrosine-protein kinase ABL1 (ABL1, Homo sapiens, UniProt P00519, H396P)	binding	0.1 µM	–	remaining binding	54%
C=CC(=O)N1CCc2ccc(-n3c(=O)ccc4cnc5ccc(-c6cnn(C)c6)cc5c43)cc21	Tyrosine-protein kinase ABL1, phosphorylated (ABL1, Homo sapiens, UniProt P00519, F317I)	KINOMEscan, item: (F317I)-phosphorylated	1 µM	baseline: control	remaining binding	100%
COc1cc(Nc2nccc(-c3cnn4nc(OC)ccc34)n2)cc(C(F)(F)F)c1	ABL1 H396P non-phosphorylated	binding	1 µM	–	remaining binding	99%
CCN1CCN(Cc2ccc(C(=O)Nc3ccc(C)c(NCc4cnc5[nH]ccc5c4OC)c3)cc2C(F)(F)F)CC1	Tyrosine-protein kinase ABL1, phosphorylated (ABL1, Homo sapiens, UniProt P00519, T315I)	binding, competition with immobilised ligand	1 µM	–	remaining binding	1.2%
C=CC(=O)N1CCCC(n2c(=O)c3ncccc3n(Cc3ccc(Oc4ccccc4)cc3)c2=O)C1 (stereo not drawn)	Tyrosine-protein kinase ABL1 (ABL1, Homo sapiens, UniProt P00519, F317I)	kinase activity	1 µM	–	remaining activity	100%
CNC1C[S+]2CC[S+]3CC[S+](C1)[Ru-4]321([N]=C=S)[n]2c3ccc(OC)cc3c3c4c(c5cc(F)c[n+]1c5c32)C(=O)NC4=O (stereo not drawn)	ABL1 phosphorylated	KinomeScan	0.1 µM	baseline: untreated	remaining binding	100%

Some of these lines once more:
Structure (SMILES)	target	assay	setting	scale	measurement	result
C=CC(=O)N1CCc2ccc(-n3c(=O)ccc4cnc5ccc(-c6cnn(C)c6)cc5c43)cc21	Tyrosine-protein kinase ABL1, phosphorylated (ABL1, Homo sapiens, UniProt P00519, F317I)	KINOMEscan, item: (F317I)-phosphorylated	1 µM	baseline: control	remaining binding	100%
